Published values pooled from the literature.
Each numbered part is a random draw from the data of one study; scales do not carry over between parts. Changes are numbered by the printed parent chain.

Set 1 — technique: RNA Bind-n-Seq; form: RNA; medium: in vitro; concentration: 200 nM; notes: whole 134-nt RNA, ends assumed; together with: 150 mM KCl; reference: input library; direction: higher = stronger binding
Target: Fragile X messenger ribonucleoprotein 1, C-terminal low-complexity region (Fmr1, Mus musculus, UniProt P35922)
Shared flanks, not repeated: GGGAGUUCUACAGUCCGACGAUC … UGGAAUUCUCGGGUGUCAAGG
| Strand | log2 enrichment |
| --- | --- |
| UUGCAGAUGAGCUUAUGGGGGGCAAUCUUAAAAAGUCCACAGCAGAUGCAUCCGGCUCGAGGGGCCAUCAGCUUUGAAUAAAUGCUUGUU | -0.00931 |
| AGUCCUGUGCUACACAUCGUAUGUACCGAAUCGGUUUUUUUGGUUUUUUUGGUUUGGAAAGUAUUAUGUUACGCCGUUCGGAUCUGCACU | -0.847 |
| CUCAAGUCCUGUGCUACACAUCGUAUGUACCGAAUCGGAAGGGGAAGGAAGGGAAAGUAUUAUGUUACGCCGUUCGGAUCUGCACUUCCA | -0.0201 |
| UGGCCCUGGUGGCAUGCGGGGAGGAAGAGGUGGCCUCAUGGAUCGUGGUGGUCCCGGUUGAAUGUUCAGAGGUGGCCGUGGUGGAGACAG | -0.224 |
| UGGAGAAGGAACGUGAUAAAGAAGUAAGCGAUGAUGAGGCUGAAGAAAAGGAAGACAAAGAAGAAGAAAAAGAAAAAGAAGAGAAAGAGU | 0.103 |
| CACAGACAACACGCACCCACACAGACACAGAGGGAAGGGGUUGGGAUGGGGACAGGGUGCACAGCAGGGCGGGGUAGGACCCCAAACCCU | 1.26 |
| CACAGACAACACGCUCCCACACAGACACAGAGGGAAGGGGUUGGGAUGGGGACAGGGUGCACAGCAGGGCGGGGUAGGACCCCAGCCCCU | 1.87 |
| CUGUGCUACACAUCGUAUGUACCGAAUCGGGGUUUUUUUGGGGUUUGGGGUUUUUUUGGGGAAAGUAUUAUGUUACGCCGUUCGGAUCUG | -0.131 |

Set 2 — technique: protein-binding microarray; form: double-stranded DNA, one strand shown; medium: in vitro; concentration: not given; direction: higher = stronger binding
Target: Transcriptional repressor CTCF (CTCF, Homo sapiens, UniProt P49711, residues 1-727, full length assumed)
Chain of UniProt P49711 (whole entry, looked up): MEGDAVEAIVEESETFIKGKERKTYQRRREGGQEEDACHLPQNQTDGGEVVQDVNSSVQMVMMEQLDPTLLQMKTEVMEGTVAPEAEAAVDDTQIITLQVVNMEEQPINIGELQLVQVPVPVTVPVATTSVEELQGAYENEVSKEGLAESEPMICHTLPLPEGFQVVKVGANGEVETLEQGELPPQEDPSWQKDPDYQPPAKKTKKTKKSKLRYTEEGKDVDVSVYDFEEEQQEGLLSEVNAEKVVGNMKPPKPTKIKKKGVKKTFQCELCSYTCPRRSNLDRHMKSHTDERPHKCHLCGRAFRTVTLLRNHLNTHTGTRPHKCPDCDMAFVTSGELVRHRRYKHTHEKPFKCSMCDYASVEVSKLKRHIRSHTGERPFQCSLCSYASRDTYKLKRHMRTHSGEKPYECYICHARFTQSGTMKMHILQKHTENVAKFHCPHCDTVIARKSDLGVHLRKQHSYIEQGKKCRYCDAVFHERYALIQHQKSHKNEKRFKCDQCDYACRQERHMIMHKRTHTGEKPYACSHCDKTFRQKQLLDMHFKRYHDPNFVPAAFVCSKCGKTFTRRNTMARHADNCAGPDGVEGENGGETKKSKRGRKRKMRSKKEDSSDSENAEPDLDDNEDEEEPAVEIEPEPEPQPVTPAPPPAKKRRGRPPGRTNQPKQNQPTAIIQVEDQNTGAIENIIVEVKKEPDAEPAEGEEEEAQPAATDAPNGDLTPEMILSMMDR
Notes: k-mer, scored over probes, only values ≥0.25
| Strand | E-score |
| --- | --- |
| ATCATATA | 0.251 |
| AAACATTT | 0.274 |
| ATACTTTG | 0.268 |
| AAAGTATT | 0.287 |
| ATAATACG | 0.278 |
| ATACTCAT | 0.303 |
| CATATGTA | 0.266 |
| AACACGTA | 0.271 |

Set 3 — technique: DHFR PCA, deep sequencing; medium: yeast; together with: (+)-ABA 4.8 µM; reference: wild-type fitted maximum; direction: higher = stronger binding
Target: ABI1, truncated, D143A, DHFR fusion (Arabidopsis thaliana)
Notes: methotrexate growth selection, single substitutions
Starting sequence: PYL1, truncated, DHFR fusion (Arabidopsis thaliana); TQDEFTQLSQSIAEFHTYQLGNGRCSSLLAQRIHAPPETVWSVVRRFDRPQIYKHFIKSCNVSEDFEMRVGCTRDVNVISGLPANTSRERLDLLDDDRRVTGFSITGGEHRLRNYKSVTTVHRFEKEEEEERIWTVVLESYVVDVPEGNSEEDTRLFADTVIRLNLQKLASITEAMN
| Substitution | relative binding score |
| --- | --- |
| E125I | 79.5% |
| L91D | 2.42% |
| A13Q | 75.5% |
| D97T | 76.4% |
| K116D | -3.35% |
| H122D | 16.5% |
| V142W | 0.855% |
| L164S | 61.6% |

Other studies, line by line
| SMILES | cell line | concentration | time | quantity | result |
| --- | --- | --- | --- | --- | --- |
| C[C@H](CCC(=O)O)[C@H]1CC[C@H]2[C@@H]3CC[C@@H]4C[C@H](O)CC[C@]4(C)[C@H]3CC[C@]12C | A-375 | 100 µM | 18 h | viability | 80.5% |

Some of these lines once more (other studies, line by line):
| SMILES | cell line | concentration | time | quantity | result |
| --- | --- | --- | --- | --- | --- |
| C[C@H](CCC(=O)O)[C@H]1CC[C@H]2[C@@H]3CC[C@@H]4C[C@H](O)CC[C@]4(C)[C@H]3CC[C@]12C | A-375 | 100 µM | 18 h | viability | 80.5% |
